Experimental data gathered from unrelated publications.
Lines come from different studies, so protocols differ. Values joined by “and” are separate records of one study, mostly repeats; a detail may differ. ± marks the error that the study gave. In brackets after ≈: the same amount, converted by molar mass.

With `CSCC[C@H](N)C(=O)N[C@@H](CO)C(=O)N[C@H](C(=O)N[C@@H](C)C(=O)NCC(=O)N[C@@H](CC(C)C)C(=O)N[C@@H](CCCCN)C(=O)N[C@@H](CCCCN)C(=O)N[C@@H](CCC(N)=O)C(=O)N[C@@H](Cc1c[nH]c2ccccc12)C(=O)N[C@@H](Cc1c[nH]cn1)C(=O)N[C@@H](CCCCN)C(=O)N[C@@H](C)C(=O)N[C@H](C(=O)N[C@@H](CCC(N)=O)C(=O)N[C@@H](CCCCN)C(=O)N[C@H](C(=O)N[C@@H](CO)C(=O)N[C@@H](CCC(=O)O)C(=O)N[C@@H](CCCCN)C(=O)N[C@H](C(=O)NCC(=O)NCC(=O)N[C@@H](C)C(N)=O)C(C)C)C(C)C)[C@@H](C)O)C(C)C` the fractional helicity was 3.4% (circular dichroism; phosphate buffer; pH 7.4).
For `CN1C(=O)[C@@H](Cc2ccc(O)c(I)c2)NC(=O)CNC(=O)[C@H](Cc2ccc3ccccc3c2)NC(=O)[C@H](CCCNC(=N)N)NC(=O)[C@H]1CCCNC(=O)c1ccc(CNC(=O)CN2CCN(CC(=O)O)CCN(CC(=O)O)CCN(CC(=O)O)CC2)cc1` [lutetium-177 labelled], “total absorbed dose” read 0.048 mGy/MBq (2; human, extrapolated from mouse, osteogenic cells).
`CCc1cnc(NC(=O)c2cc(S(=O)(=O)N3CCOCC3)ccc2N(C)C2CCCC2)s1` has a Glucose of 240 mg/dL (mouse, serum; 10 mg/kg, 3 doses).
Under “molar extinction coefficient”, `CCCCN1C(=O)c2cccc3c(NCCCCCN4CCOCC4)ccc(c23)C1=O` is recorded as 5800 M⁻¹ cm⁻¹ (chloroform).
`CC(=O)N[C@H](CC(=O)O)C(=O)N[C@H](Cc1c[nH]c2ccccc12)C(=O)N[C@H](Cc1ccccc1)C(=O)N[C@H](CCCCN)C(=O)N[C@H](C)C(=O)N[C@H](Cc1ccccc1)C(=O)N[C@H](Cc1ccc(O)cc1)C(=O)N[C@H](CC(=O)O)C(=O)N[C@H](CCCCN)C(=O)N[C@@H](C(=O)N[C@H](C)C(=O)N[C@H](CCC(=O)O)C(=O)N[C@H](CCCCN)C(=O)N[C@H](Cc1ccccc1)C(=O)N[C@H](CCCCN)C(=O)N[C@H](CCC(=O)O)C(=O)N[C@H](C)C(=O)N[C@H](Cc1ccccc1)C(N)=O)C(C)C` gave an AUC(0-t) of 0.0377 µg·h/mL (high-risk statin-treated women with CHD, plasma; oral, dose not given, median, doses pooled).
`COCC1CN(C2CCN(c3cc(OC)c(Nc4ncc(Br)c(Nc5ccc6c(c5P(C)(C)=O)OCCO6)n4)cc3C)CC2)C1` gave a Cmin of 582 ng/mL (EGFR-mutant NSCLC patients, plasma; oral, 90 mg multiple doses, geometric mean).
`CCCCCCCOc1ccc(CC[C@](N)(CO)COP(=O)(O)O)cc1C(F)(F)F`: “urinary excretion (0-24 h)” 0% (healthy men, urine; oral, 0.5 mg once daily, day 1, fed state; baseline: dose).
`CCCCN1C(=O)c2cccc3c(NCCCCCCN4CCOCC4)ccc(c23)C1=O` — result for “molar extinction coefficient”: 13700 M⁻¹ cm⁻¹ (methanol).
For `CCCC[C@H](OC(C)=O)c1ccccc1C(=O)O`, the AUC(0-inf) was 19700 ± 2810 ng·h/mL (Sprague-Dawley rats, both sexes, whole blood; intravenous, 20 mg/kg single dose).
Under “drug-related adverse events”, `CCC(C(=O)Nc1ccc(C(N)=O)c(F)c1)n1cc(OC)c(-c2cc(Cl)ccc2-n2cc(C(F)(F)F)nn2)cc1=O` (stereo not shown) is recorded as 7.1% (healthy male humans; 50 mg).
`O=C1CCC(N2Cc3cc(C(=O)O)c(F)cc3C2=O)C(=O)N1` (stereo not shown) has a plasma concentration of 4.5 ± 1.3 ng/mL (cynomolgus monkey, male; oral, 0.3 mg/kg parent drug, 1 h).
`O=C([O-])CN1CCN(CC(=O)[O-])CCN(CC(=O)NC[C@H]2CC[C@H](C(=O)N[C@@H](Cc3ccc4ccccc4c3)C(=O)NCCCC[C@H](NC(=O)N[C@@H](CCC(=O)O)C(=O)O)C(=O)O)CC2)CCN(CC(=O)[O-])CC1.[68Ga+3]` gave a distribution half-life of 1.02 min (ICR mice, blood; intravenous).
For `C=C[C@]1(C)C[C@@H](OC(=O)CSc2ccc(NC(=O)c3ccco3)cc2)[C@]2(C)[C@H](C)CC[C@]3(CCC(=O)[C@H]32)[C@@H](C)[C@@H]1O`, “peripheral volume (V2/F)” read 3.11 L/kg and 3.12 L/kg (M. gallisepticum-infected chickens, plasma; intramuscular, 80 mg/kg single dose).
`C=CC(=O)Nc1cc(Nc2nccc(-c3c[nH]c4ccccc34)n2)c(OC)cc1N(C)CCN(C)C` has a recovery of 91.2% (storage stability; human plasma; 5 h, on ice, high QC level).
`[123I]c1ccc2nc(-c3ccc(-n4ccnn4)nc3)cn2c1` gave a tracer uptake of 0.084 %ID/g (male Wistar rat, blood; intravenous, 4 MBq, 3 h).
`CC(=O)N([O-])CCCCCNC(=O)CCC(=O)N([O-])CCCCCNC(=O)CCC(=O)N([O-])CCCCCN.[89Zr+4]` has an intact complex of 99 ± 1% (radio-TLC; aqueous buffer; 3 d, pH 7.2, 37 °C, 89Zr-labelled complex, together with: CaCl2 10-fold excess).
`C=C(NC(=O)c1csc(-c2nc3c(cc2O)-c2nc(cs2)C(=O)NC(C(C)O)C(=O)NC(=C(C)OC)c2nc(cs2)C(=O)NC2c4nc(cs4)C(=O)NC(COC(=O)c4c5c6c(cccc6n4O)COC(=O)C(OC4CC(C)(O)C(N(C)C)C(C)O4)C2OC5)c2nc-3cs2)n1)C(N)=O` (stereo not shown) gave a terminal half-life of 316 ± 37.8 min (cynomolgus monkey, both sexes, plasma; intravenous infusion, 1.5 mg/kg twice daily, 0 to 30 h).
With `CN(O)C(=O)CCC(=O)NCCCN(CCCCN(CCCNC(=O)CCC(=O)N(C)O)C(=O)CCC(=O)N(C)O)C(=O)CCC(=O)N(C)O.[89Zr]` the intact complex was 99.2 ± 0.8% (mouse plasma; 1 d, 37 °C).
The AUC(0-t) of `CN1CCC[C@]1(C)/C=C/S(=O)(=O)NC(=O)Nc1c2c(cc3c1CCC3)CC=C2` is reported as 1220 µg·h/mL (human, plasma; oral, 100 mg twice daily of parent drug, day 14, metabolite of dosed drug).
`CC(C)[C@H](NC(=O)[C@H](Cc1c[nH]c2ccccc12)NC(=O)[C@H](CCCNC(=N)N)NC(=O)[C@H](CCCNC(=N)N)NC(=O)[C@@H](NC(=O)[C@@H](NC(=O)[C@H](CCCNC(=N)N)NC(=O)[C@@H](NC(=O)[C@@H](NC(=O)[C@H](CCCNC(=N)N)NC(=O)[C@H](CCCNC(=N)N)NC(=O)[C@@H](NC(=O)[C@H](Cc1c[nH]c2ccccc12)NC(=O)[C@H](CCCNC(=N)N)NC(=O)[C@H](CCCNC(=N)N)NC(=O)[C@@H](NC(=O)[C@H](CCCNC(=N)N)NC(=O)[C@H](CCCNC(=N)N)NC(=O)[C@@H](NC(=O)[C@H](Cc1c[nH]c2ccccc12)NC(=O)[C@H](CCCNC(=N)N)NC(=O)[C@@H](N)CCCNC(=N)N)C(C)C)C(C)C)C(C)C)C(C)C)C(C)C)C(C)C)C(C)C)C(=O)N[C@@H](CCCNC(=N)N)C(=O)N[C@@H](CCCNC(=N)N)C(=O)O` has a glucose excretion of 50 µg/day/g body weight (CD1 mouse, urine; intravenous, 15 mg/kg, 6 h, [14C]-labelled compound).
For `Cc1n[nH]c(C)c1CCCOc1cc(C(=O)NCCCCC(NC(=O)CN2CCN(CC(=O)[O-])CCN(CC(=O)[O-])CCN(CC(=O)[O-])CC2)C(=O)NCC2CCC(C(=O)NC(Cc3ccc4ccccc4c3)C(=O)NCCCCC(NC(=O)NC(CCC(=O)O)C(=O)O)C(=O)O)CC2)ccc1F.[68Ga+3]` (stereo not shown), “mean tumour uptake” read 11.4 ± 1.16 %ID/g (micro-PET/CT; mouse 22Rv1 xenograft, tumour; 2 h post-injection).
The body weight of `CC(C)(C)NCC(SS(=O)(=O)O)c1ccccc1` (stereo not shown) is reported as 36 g (Swiss Webster mice, Schistosoma mansoni-infected; 100 mg/kg single dose on day 42 post-infection, perfusion day 56 post-infection).
For `COc1cccc(OC)c1-c1cc(C(=O)NC2(C(=O)O)C3CC4CC(C3)CC2C4)nn1-c1ccc(C(=O)N(C)CCCN(C)C(=O)[C@H](CCCCNC(=O)[C@H](CC(C)C)NC(=O)C2OC2C(=O)O)NC(=O)CN2CCN(CC(=O)[O-])CCN(CC(=O)[O-])CCN(CC(=O)[O-])CC2)cc1C(C)C.[177Lu+3]` (mixture of isomers), the tumour-to-brain ratio was 105 (mouse, HT-29 xenograft; 4 h post injection, biodistribution; baseline: tumour over brain uptake).
For `O=C(NCCCOCCOCCOCCCNC(=O)[C@H]1CCCC[C@H]1C(=O)O)[C@H]1CCCC[C@H]1C(=O)O`, the surface tension was ~62 mN/m (pendant drop; 1 % w/w).
The solubility of `Clc1cccc(Nc2nc(NCc3ccccc3)c3ccccc3n2)c1` is reported as 0.04 µg/mL (≈ 0.111 µM) (aqueous buffer; pH 5).
The SUV of `O=C(Nc1cnccc1-c1ccc([18F])cc1)c1ccnc(NC(=O)C2CC2)c1` is reported as 1.69 (FVB/NJ mice (both sexes), bladder; intravenous, dose not given, 120 min, together with: tariquidar 15 mg/kg i.v. pre-dose).
`CCCCCCCC(=O)[O][Pt]([Cl])([Cl])[O]C(=O)CCCCCCC.N.N` gave a distribution half-life of 3 min and 3.18 min (ICP-MS, refers to: platinum; nude mice, blood; intravenous, 1.95 mg/kg).
`CCC1=[N+]2N=C(c3ccccc3)C(=O)O[B-]2(c2ccccc2)Oc2cc(OC)ccc21` (stereo not shown) — result for “molar absorption coefficient”: 7000 M⁻¹ cm⁻¹ (toluene).
For `Oc1c(Br)cc(Br)c2nc3cc(F)c(F)cc3nc12`, the haemolysis was ≤ 1% (haemolysis; 200 µM).
The thermodynamic solubility of `CC1(F)CN(C(=O)Cn2c(=O)c(C(=O)NCc3ccc(Cl)cc3)cc3nc(N4CCN(CCN)C4=O)cnc32)C1` is reported as 6.64 µM (≈ 3.79 µg/mL) (aqueous buffer; 24 h, pH 7.4, 37 °C).
With `COc1ccc([C@@H]2CC(=O)c3c(O)cc(O[C@@H]4O[C@H](CO)[C@@H](O)[C@H](O)[C@H]4O[C@@H]4O[C@@H](C)[C@H](O)[C@@H](O)[C@H]4O)cc3O2)cc1O` the half-life was 353 ± 78.8 min (LC-MS/MS; Sprague-Dawley rat, male, lean, plasma; oral, 100 mg/kg).
Under “molar extinction coefficient”, `CCCCN1C(=O)c2cccc3c(NCCCN4CCOCC4)ccc(c23)C1=O` is recorded as 4400 M⁻¹ cm⁻¹ (DCM).
`O=C(Nc1cnccc1-c1ccc([18F])nc1)c1ccnc(NC(=O)C2CC2)c1` gave a mean SUV of 0.069 (ex vivo gamma counting; GSK-3β transgenic mice, early-stage, caudate nucleus; intravenous, 120 min, together with: tariquidar 15 mg/kg iv).
`O=C(NS(=O)(=O)c1cccs1)c1cc2ccccc2n1Cc1ccc(Br)c2ccccc12` gave a plasma concentration of 69.1 ng/mL (Sprague-Dawley rat, male, plasma; oral, 2 mg/kg, 6 h).
Under blood concentration, `CCC1C=C(C)C(O)C(C)CC(OC)C2OC(O)(C(=O)C(=O)N3CCCCC3C(=O)OC(C(C)=CC3CCC(O)C(OC)C3)C(C)C(O)CC1=O)C(C)CC2OC` (stereo not shown) is recorded as “not detected” (C57BL/6 mouse, blood; topical, dose not given, 1 h, daily dosing for 4 days).
`CCCCN1C(=O)c2cccc3c(NCCCCCCCCN4CCOCC4)ccc(c23)C1=O`: “molar extinction coefficient” 11000 M⁻¹ cm⁻¹ (water; pH 6.0).
With `Cc1[nH]c(=O)c(CNC(=O)c2cc(Cl)c3c(c2C)O[C@@](C)([C@H]2CC[C@H](N(C)C)CC2)O3)c(C)c1O` the urinary excretion was 1.5% and 0.2% and 0.8% and 0.6% (radiochromatography; human, urine; oral, 200 mg; baseline: dose).
`C/C(N)=N/C(=N\S(=O)(=O)c1ccc(C(F)(F)F)cc1)N1C[C@H](c2ccccc2)C(c2ccc(Cl)cc2)=N1` gave an oral bioavailability of 42.7% (Sprague-Dawley rat male, plasma; oral, 3 mg/kg).
`CCCCN1C(=O)c2cccc3c(NCCCCN4CCOCC4)ccc(c23)C1=O` — result for “molar extinction coefficient”: 8600 M⁻¹ cm⁻¹ (ethyl acetate).
The tumour-to-brain ratio of `COc1cccc(OC)c1-c1cc(C(=O)NC2(C(=O)O)C3CC4CC(C3)CC2C4)nn1-c1ccc(C(=O)N(C)CCCN(C)CCCN(C)C(=O)[C@H](CCCCNC(=O)[C@H](CC(C)C)NC(=O)C2OC2C(=O)O)NC(=O)CN2CCN(CC(=O)[O-])CCN(CC(=O)[O-])CCN(CC(=O)[O-])CC2)cc1C(C)C.[177Lu+3]` (mixture of isomers) is reported as 137 (mouse, HT-29 xenograft; 24 h post injection, biodistribution; baseline: tumour over brain uptake).

Excerpt of the above:
`C=C(NC(=O)c1csc(-c2nc3c(cc2O)-c2nc(cs2)C(=O)NC(C(C)O)C(=O)NC(=C(C)OC)c2nc(cs2)C(=O)NC2c4nc(cs4)C(=O)NC(COC(=O)c4c5c6c(cccc6n4O)COC(=O)C(OC4CC(C)(O)C(N(C)C)C(C)O4)C2OC5)c2nc-3cs2)n1)C(N)=O` (stereo not shown) gave a terminal half-life of 316 ± 37.8 min (cynomolgus monkey, both sexes, plasma; intravenous infusion, 1.5 mg/kg twice daily, 0 to 30 h).
With `CN(O)C(=O)CCC(=O)NCCCN(CCCCN(CCCNC(=O)CCC(=O)N(C)O)C(=O)CCC(=O)N(C)O)C(=O)CCC(=O)N(C)O.[89Zr]` the intact complex was 99.2 ± 0.8% (mouse plasma; 1 d, 37 °C).
The AUC(0-t) of `CN1CCC[C@]1(C)/C=C/S(=O)(=O)NC(=O)Nc1c2c(cc3c1CCC3)CC=C2` is reported as 1220 µg·h/mL (human, plasma; oral, 100 mg twice daily of parent drug, day 14, metabolite of dosed drug).
